{"data": "Measurements of several laboratories", "FURIN": "Furin (FURIN, Homo sapiens, UniProt P09958)", "TMEM97": "Sigma intracellular receptor 2 (TMEM97, Homo sapiens, UniProt Q5BJF2)", "CA12": "Carbonic anhydrase 12 (CA12, Homo sapiens, UniProt O43570)", "CA2": "Carbonic anhydrase 2 (CA2, Homo sapiens, UniProt P00918)", "CA1": "Carbonic anhydrase 1 (CA1, Homo sapiens, UniProt P00915)", "HTR2C": "5-hydroxytryptamine receptor 2C (HTR2C, Homo sapiens, UniProt P28335)", "note": "Values joined by “and” are separate records of one study, mostly repeats; a detail may differ.", "chain of UniProt P00915 (whole entry, looked up)": "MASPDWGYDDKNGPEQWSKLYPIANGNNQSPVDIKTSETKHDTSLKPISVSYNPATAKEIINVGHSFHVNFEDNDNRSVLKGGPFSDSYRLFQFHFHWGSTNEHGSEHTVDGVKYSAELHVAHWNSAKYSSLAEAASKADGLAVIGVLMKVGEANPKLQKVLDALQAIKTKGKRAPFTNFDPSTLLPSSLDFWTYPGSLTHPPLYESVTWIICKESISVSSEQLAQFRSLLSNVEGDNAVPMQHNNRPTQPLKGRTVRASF", "chain of UniProt Q5BJF2 (whole entry, looked up)": "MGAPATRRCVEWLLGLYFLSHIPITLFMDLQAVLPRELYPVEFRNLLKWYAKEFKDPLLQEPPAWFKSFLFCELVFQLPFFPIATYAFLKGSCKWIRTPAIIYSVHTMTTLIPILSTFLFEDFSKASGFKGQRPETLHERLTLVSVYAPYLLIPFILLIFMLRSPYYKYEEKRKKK", "chain of UniProt P00742 (whole entry, looked up)": "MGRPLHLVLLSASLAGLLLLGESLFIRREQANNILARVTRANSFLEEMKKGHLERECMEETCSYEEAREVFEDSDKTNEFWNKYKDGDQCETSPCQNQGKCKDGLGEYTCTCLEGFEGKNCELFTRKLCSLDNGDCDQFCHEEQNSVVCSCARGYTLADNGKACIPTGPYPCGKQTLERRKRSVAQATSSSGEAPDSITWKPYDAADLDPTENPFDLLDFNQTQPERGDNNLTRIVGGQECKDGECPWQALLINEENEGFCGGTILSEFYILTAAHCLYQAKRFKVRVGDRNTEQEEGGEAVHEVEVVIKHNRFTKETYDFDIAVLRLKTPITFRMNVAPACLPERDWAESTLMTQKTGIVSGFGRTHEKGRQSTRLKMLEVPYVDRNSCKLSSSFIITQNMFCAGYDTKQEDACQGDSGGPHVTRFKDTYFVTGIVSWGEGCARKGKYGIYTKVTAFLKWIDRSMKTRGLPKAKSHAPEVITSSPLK", "chain of UniProt P09958 (whole entry, looked up)": "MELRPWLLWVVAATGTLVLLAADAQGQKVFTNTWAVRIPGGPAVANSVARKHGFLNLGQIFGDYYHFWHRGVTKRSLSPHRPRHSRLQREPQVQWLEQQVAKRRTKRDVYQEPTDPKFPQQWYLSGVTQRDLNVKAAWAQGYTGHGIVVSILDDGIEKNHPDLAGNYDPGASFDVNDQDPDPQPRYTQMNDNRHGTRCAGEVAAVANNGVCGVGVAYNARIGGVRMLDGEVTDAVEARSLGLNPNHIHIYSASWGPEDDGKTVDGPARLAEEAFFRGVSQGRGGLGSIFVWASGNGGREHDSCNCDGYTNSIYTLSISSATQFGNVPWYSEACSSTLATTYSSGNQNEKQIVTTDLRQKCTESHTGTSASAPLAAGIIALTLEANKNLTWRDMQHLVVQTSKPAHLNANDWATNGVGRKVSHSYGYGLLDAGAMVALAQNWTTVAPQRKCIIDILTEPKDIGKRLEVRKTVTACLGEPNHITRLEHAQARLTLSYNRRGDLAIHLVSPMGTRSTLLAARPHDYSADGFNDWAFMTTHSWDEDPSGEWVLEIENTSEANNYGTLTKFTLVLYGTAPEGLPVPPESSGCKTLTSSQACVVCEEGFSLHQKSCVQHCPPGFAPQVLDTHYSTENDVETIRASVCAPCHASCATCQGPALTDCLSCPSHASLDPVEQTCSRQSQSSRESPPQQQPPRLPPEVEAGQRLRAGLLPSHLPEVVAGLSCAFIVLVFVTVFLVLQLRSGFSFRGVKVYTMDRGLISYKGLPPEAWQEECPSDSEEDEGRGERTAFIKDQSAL", "chain of UniProt O43570 (whole entry, looked up)": "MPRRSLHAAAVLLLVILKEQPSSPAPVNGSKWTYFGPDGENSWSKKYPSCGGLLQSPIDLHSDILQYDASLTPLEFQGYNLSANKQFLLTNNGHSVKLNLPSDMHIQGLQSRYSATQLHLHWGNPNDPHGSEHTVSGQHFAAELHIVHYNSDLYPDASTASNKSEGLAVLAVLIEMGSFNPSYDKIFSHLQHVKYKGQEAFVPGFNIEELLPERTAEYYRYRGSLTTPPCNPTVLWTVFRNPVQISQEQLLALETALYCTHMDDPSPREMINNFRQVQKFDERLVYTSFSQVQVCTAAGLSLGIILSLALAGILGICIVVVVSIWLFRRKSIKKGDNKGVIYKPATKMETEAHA", "chain of UniProt P28335 (whole entry, looked up)": "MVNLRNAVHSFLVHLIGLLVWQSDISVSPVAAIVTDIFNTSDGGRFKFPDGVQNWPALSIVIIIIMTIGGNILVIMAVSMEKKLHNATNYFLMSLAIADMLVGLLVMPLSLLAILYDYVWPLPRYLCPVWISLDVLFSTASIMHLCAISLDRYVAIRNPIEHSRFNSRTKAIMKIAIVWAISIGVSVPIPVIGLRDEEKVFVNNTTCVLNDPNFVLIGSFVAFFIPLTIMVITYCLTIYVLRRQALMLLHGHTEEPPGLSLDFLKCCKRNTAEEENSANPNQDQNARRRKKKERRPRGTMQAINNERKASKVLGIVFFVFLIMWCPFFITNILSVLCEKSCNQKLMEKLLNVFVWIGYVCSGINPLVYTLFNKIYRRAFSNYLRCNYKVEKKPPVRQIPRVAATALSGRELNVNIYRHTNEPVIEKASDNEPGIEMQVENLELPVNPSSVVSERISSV", "chain of UniProt P18089 (whole entry, looked up)": "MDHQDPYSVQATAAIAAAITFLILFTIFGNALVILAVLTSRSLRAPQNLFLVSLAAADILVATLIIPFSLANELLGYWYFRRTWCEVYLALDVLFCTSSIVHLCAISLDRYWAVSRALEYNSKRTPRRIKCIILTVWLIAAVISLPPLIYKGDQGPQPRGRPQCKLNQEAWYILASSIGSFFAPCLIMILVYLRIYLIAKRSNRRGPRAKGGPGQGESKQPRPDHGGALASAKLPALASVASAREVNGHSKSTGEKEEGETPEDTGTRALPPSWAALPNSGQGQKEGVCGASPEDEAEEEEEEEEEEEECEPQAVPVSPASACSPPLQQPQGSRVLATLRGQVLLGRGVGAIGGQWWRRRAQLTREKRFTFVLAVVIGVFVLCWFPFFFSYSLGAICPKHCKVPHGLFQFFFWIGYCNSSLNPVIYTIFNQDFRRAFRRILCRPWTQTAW", "chain of UniProt P22303 (whole entry, looked up)": "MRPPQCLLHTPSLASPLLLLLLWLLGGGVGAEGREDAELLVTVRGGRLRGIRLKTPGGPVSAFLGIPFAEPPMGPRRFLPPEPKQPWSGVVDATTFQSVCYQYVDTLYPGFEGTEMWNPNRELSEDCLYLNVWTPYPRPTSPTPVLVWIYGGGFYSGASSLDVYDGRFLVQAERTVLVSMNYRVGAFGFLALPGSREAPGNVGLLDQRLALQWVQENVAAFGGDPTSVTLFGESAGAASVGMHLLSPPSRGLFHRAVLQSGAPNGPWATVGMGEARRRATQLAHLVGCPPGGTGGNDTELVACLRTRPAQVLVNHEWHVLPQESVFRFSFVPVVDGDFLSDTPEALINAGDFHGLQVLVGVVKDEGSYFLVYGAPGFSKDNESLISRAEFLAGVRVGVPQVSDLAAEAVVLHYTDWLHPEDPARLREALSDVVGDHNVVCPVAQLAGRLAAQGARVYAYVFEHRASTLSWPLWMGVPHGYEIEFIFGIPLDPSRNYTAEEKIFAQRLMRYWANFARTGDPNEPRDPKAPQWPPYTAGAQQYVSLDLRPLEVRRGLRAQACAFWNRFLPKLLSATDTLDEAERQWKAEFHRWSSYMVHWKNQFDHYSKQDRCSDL", "chain of UniProt Q07912 (whole entry, looked up)": "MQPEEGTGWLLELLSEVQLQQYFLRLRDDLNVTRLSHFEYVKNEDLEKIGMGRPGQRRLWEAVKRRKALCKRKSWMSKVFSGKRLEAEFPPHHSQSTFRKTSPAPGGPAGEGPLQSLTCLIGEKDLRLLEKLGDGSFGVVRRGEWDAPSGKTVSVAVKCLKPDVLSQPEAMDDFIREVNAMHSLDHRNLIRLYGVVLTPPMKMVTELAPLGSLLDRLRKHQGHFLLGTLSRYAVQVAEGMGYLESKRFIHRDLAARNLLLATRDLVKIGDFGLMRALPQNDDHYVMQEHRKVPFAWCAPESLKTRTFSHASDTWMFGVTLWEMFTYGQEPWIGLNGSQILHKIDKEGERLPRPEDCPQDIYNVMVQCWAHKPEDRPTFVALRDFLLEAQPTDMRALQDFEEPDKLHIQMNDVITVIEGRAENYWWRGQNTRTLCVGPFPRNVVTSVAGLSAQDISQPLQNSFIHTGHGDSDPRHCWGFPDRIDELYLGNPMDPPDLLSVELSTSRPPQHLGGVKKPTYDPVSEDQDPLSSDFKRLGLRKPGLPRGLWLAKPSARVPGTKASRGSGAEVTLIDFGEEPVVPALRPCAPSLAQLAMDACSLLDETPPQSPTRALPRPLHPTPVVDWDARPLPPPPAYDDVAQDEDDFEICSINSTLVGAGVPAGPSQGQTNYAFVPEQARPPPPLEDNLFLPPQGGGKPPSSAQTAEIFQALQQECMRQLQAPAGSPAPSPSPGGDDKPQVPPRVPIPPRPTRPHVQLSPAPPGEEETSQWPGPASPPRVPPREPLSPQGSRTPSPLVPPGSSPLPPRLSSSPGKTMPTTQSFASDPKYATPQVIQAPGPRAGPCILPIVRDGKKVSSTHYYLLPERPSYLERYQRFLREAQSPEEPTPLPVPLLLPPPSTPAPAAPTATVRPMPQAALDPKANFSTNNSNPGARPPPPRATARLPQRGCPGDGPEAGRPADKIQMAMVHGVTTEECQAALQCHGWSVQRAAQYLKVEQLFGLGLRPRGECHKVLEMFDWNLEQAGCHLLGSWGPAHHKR", "chain of UniProt P60651 (whole entry, looked up)": "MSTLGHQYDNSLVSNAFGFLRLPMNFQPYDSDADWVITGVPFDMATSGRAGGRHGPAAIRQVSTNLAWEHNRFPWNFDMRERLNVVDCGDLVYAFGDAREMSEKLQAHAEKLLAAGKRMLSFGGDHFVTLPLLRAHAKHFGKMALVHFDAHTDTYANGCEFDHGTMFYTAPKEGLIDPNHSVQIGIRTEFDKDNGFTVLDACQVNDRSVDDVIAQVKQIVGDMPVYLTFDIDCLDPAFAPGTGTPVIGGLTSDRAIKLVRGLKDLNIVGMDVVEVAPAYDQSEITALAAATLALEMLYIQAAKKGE"}
{"SMILES": "CCOC(=O)N[C@@H](CCCNC(=N)N)C(=O)N[C@@H](CCC(N)=O)C(=O)N[C@@H](Cc1ccccc1)C(=O)N[C@@H](CCCNC(=N)N)C(=O)c1nc2ccccc2s1", "target": "FURIN", "test": "cell-free assay", "quantity": "Ki", "value": "> 10 µM"}
{"SMILES": "FC(F)(F)c1ccc2c(c1)N(CCCN1CCN(CCCl)CC1)c1ccccc1S2", "target": "TMEM97", "test": "ligand displacement, radioligand", "quantity": "Ki", "value": "0.467 µM"}
{"SMILES": "O=C(Nc1ccc2c(c1)C=CCP(=O)(O)O2)c1ccc(Cl)cc1", "target": "CA12", "test": "enzyme activity, inhibitor, stopped-flow", "quantity": "Ki", "value": "0.0641 µM"}
{"SMILES": "[2H]c1c([2H])c([C@]2([2H])CCCN2C(=O)C(C)(C)Oc2ccc3cn[nH]c3c2)c([2H])c([2H])c1C([2H])([2H])[2H]", "target": "Activated CDC42 kinase 1 (TNK2, Homo sapiens, UniProt Q07912)", "test": "binding, competition with immobilised ligand", "conditions": "1 µM", "quantity": "remaining binding", "value": "73%"}
{"SMILES": "CO[C@H]1C[C@@H]2\\C=C(C)/C=C/C=C\\C(=O)N[C@H](c3ccccc3)C/C=C/CC[C@H](O)CC(=O)C2=C1O", "target": "Replicase polyprotein 1ab, main protease (Feline coronavirus, UniProt Q98VG9)", "test": "enzyme activity, inhibitor, fluorescence", "quantity": "Ki", "value": "11.8 µM"}
{"SMILES": "Cc1cc2c(s1)Nc1ccccc1N=C2N1CCN(C)CC1", "target": "TMEM97", "test": "ligand displacement, radioligand", "quantity": "Ki", "value": "> 10 µM"}
{"SMILES": "COc1ccc(NC(=O)Nc2ccc3c(c2)C=CCP(=O)(O)O3)cc1", "target": "CA2", "test": "enzyme activity, inhibitor, stopped-flow", "quantity": "Ki", "value": "> 10 µM"}
{"SMILES": "CN1CCN(CCc2ccc(Cl)c(Cl)c2)CC1", "target": "TMEM97", "test": "ligand displacement, radioligand", "quantity": "Ki", "value": "0.354 µM"}
{"SMILES": "O=C(Nc1ccc2c(c1)C=CCP(=O)(O)O2)c1ccccc1", "target": "CA1", "test": "enzyme activity, inhibitor, stopped-flow", "quantity": "Ki", "value": "> 10 µM"}
{"SMILES": "CC(C)[C@@H](Nc1nc(Cl)nc2c1ncn2[C@H]1[C@H](O)[C@H](O)[C@]2(CCl)C[C@H]12)C1CC1", "target": "HTR2C", "test": "ligand displacement, radioligand", "quantity": "Ki", "value": "3.81 µM"}
{"SMILES": "CCN(CC)CCOc1ccc(C(=C(Cl)c2ccccc2)c2ccccc2)cc1", "target": "TMEM97", "test": "ligand displacement, radioligand", "quantity": "Ki", "value": "0.895 µM"}
{"SMILES": "CC(C)(C)[C@H](NC(=O)[C@H](CCCNC(=N)N)NC(=O)Cc1ccc(CNC(=N)N)cc1)C(=O)N[C@@H](CCCCN)C(=O)NCc1ccc(C(=N)N)cc1", "target": "Coagulation factor X, trypsin-like site (F10, Homo sapiens, UniProt P00742)", "test": "enzyme activity, inhibitor", "conditions": "pH 8", "quantity": "Ki", "value": "> 3 µM and 8 µM"}
{"SMILES": "CN(C)CCC(c1ccc(Cl)cc1)c1ccccn1 (stereo not drawn)", "target": "TMEM97", "test": "ligand displacement, radioligand", "quantity": "Ki", "value": "3.93 µM"}
{"SMILES": "CC(C)=CCN=C(N)N", "target": "speB (Escherichia coli, UniProt P60651)", "test": "enzyme activity, inhibitor, absorbance", "conditions": "pH 6.5", "quantity": "Ki", "value": "8.03 µM"}
{"SMILES": "CC(C)C[C@H](N)C(=O)N[C@@H](Cc1c[nH]c2ccccc12)C(=O)N[C@@H](CC(=O)O)C(=O)N1CCC[C@H]1C(=O)N1CCC[C@H]1C(=O)N[C@@H](CCC(=O)O)C(=O)NCC(=O)N[C@@H](C)C(=O)N1CCC[C@H]1C(=O)O", "target": "Angiotensin-converting enzyme (ACE, Oryctolagus cuniculus, UniProt P12822)", "test": "enzyme activity, inhibitor", "quantity": "Ki", "value": "10700 µM"}
{"SMILES": "O=C(Nc1ccc2c(c1)C=CCP(=O)(O)O2)c1ccco1", "target": "CA12", "test": "enzyme activity, inhibitor, stopped-flow", "quantity": "Ki", "value": "0.0097 µM"}
{"SMILES": "CC(C)(C)[C@H](Nc1nc(Cl)nc2c1ncn2[C@H]1[C@H](O)[C@H](O)[C@]2(CO)C[C@H]12)C1CC1", "target": "HTR2C", "test": "ligand displacement, radioligand", "quantity": "Ki", "value": "1.23 µM"}
{"SMILES": "COc1cc2c(cc1OC)CN(CCc1ccc(NC(=O)c3cccc4c(=O)c5cccc(OC)c5[nH]c34)cc1)CC2", "target": "Alpha-2B adrenergic receptor (ADRA2B, Homo sapiens, UniProt P18089)", "test": "cell-free assay", "quantity": "Ki", "value": "0.806 µM"}
{"SMILES": "CC(C)NC[C@@H](O)COc1cccc2ccccc12", "target": "TMEM97", "test": "ligand displacement, radioligand", "quantity": "Ki", "value": "1.23 µM"}
{"SMILES": "O=C(Nc1ccccc1)Nc1ccc2c(c1)C=CCP(=O)(O)O2", "target": "CA1", "test": "enzyme activity, inhibitor, stopped-flow", "quantity": "Ki", "value": "> 10 µM"}
{"SMILES": "CN(C)CCCC1(c2ccc(F)cc2)OCc2cc(C#N)ccc21 (stereo not drawn)", "target": "TMEM97", "test": "ligand displacement, radioligand", "quantity": "Ki", "value": "0.689 µM"}
{"SMILES": "O=C(Nc1ccc(F)cc1)Nc1ccc2c(c1)C=CCP(=O)(O)O2", "target": "CA1", "test": "enzyme activity, inhibitor, stopped-flow", "quantity": "Ki", "value": "> 10 µM"}
{"SMILES": "COCCCC/C(=N\\OCCN)c1ccc(C(F)(F)F)cc1", "target": "TMEM97", "test": "ligand displacement, radioligand", "quantity": "Ki", "value": "3.37 µM"}
{"SMILES": "O=C(Nc1ccc(I)cc1)Nc1ccc2c(c1)C=CCP(=O)(O)O2", "target": "CA2", "test": "enzyme activity, inhibitor, stopped-flow", "quantity": "Ki", "value": "> 10 µM"}
{"SMILES": "CC(C)c1cc2c(c(O)c1O)[C@@]13CCCC(C)(C)[C@@H]1[C@@H](O)[C@@H]2OC3=O", "target": "Acetylcholinesterase (ACHE, Homo sapiens, UniProt P22303)", "test": "enzyme activity, inhibitor", "quantity": "Ki", "value": "0.00168 µM"}
{"SMILES": "O=C(Nc1ccc2c(c1)C=CCP(=O)(O)O2)c1ccc(Br)cc1", "target": "CA1", "test": "enzyme activity, inhibitor, stopped-flow", "quantity": "Ki", "value": "> 10 µM"}
{"SMILES": "N=C(N)NCCC[C@H](NC(=O)[C@H](Cc1ccccc1)NC(=O)[C@H](CCC(N)=O)NC(=O)OCc1ccccc1)C(=O)c1nccs1", "target": "FURIN", "test": "cell-free assay", "quantity": "Ki", "value": "> 10 µM"}
{"note": "For quick reference, copied from above:"}
{"SMILES": "CCOC(=O)N[C@@H](CCCNC(=N)N)C(=O)N[C@@H](CCC(N)=O)C(=O)N[C@@H](Cc1ccccc1)C(=O)N[C@@H](CCCNC(=N)N)C(=O)c1nc2ccccc2s1", "target": "FURIN", "test": "cell-free assay", "quantity": "Ki", "value": "> 10 µM"}
